Published values from different studies.
“And” joins repeats or separate records; there may be more than shown. ± marks the error that the study gave.
CNR2: Cannabinoid receptor 2 (CNR2, Homo sapiens, UniProt P34972)
C3AR1: C3a anaphylatoxin chemotactic receptor (C3AR1, Homo sapiens, UniProt Q16581)
Genome polyprotein NS2B-NS3 protease: Genome polyprotein, NS2B-NS3 protease (dengue virus type 2, UniProt P29990)
GNRHR: Gonadotropin-releasing hormone receptor (GNRHR, Homo sapiens, UniProt P30968)
DGKA: Diacylglycerol kinase alpha (DGKA, Homo sapiens, UniProt P23743)

The EC50 of `Nc1ncnc2c1ncn2[C@@H]1O[C@H](COP(=O)(O)OP(=O)(O)OC[C@H]2OC(O)[C@H](O)[C@@H]2O)[C@@H](O)[C@H]1OP(=O)(O)O` (some centres unmarked) is reported as 0.096 ± 0.01 µM (TRPM2 (Nematostella vectensis, UniProt A7T1N0, M197C/H1174C); agonist).
`C[C@@]1(c2nc(-c3ccc(F)c4cn[nH]c34)no2)CCCN(C(=O)c2ccc(F)nc2)C1` has an EC50 of 0.00806 µM (CNR2; cAMP, agonist, luciferase).
With `C=C1C(=O)OC2C=C(C)C(OC(C)=O)CC=C(COC(C)=O)CC(OC(=O)C(C)=CCO)C12` (centres unmarked) the EC50 was 11.7 µM (Branched-chain-amino-acid aminotransferase, cytosolic (BCAT1, Homo sapiens, UniProt P54687)).
With `CC(C)C[C@H](NC(=O)[C@H](C)NC(=O)[C@H](CO)NC(=O)[C@@H]1CCCN1C(=O)[C@@H]1CCCN1C(=O)[C@H](CCC(N)=O)NC(=O)[C@H](CC(C)C)NC(=O)[C@@H](N)[C@@H](C)O)C(=O)N[C@@H](CCCNC(=N)N)C(=O)N[C@@H](CCCNC(=N)N)C(=O)N[C@@H](CCCNC(=N)N)C(=O)N[C@@H](Cc1c[nH]cn1)C(=O)N[C@@H](Cc1ccc(O)cc1)C(=O)N[C@@H](Cc1c[nH]cn1)C(=O)N[C@@H](Cc1c[nH]cn1)C(=O)N[C@@H](C)C(=O)N[C@@H](CC(C)C)C(=O)N1CCC[C@H]1C(=O)N1CCC[C@H]1C(=O)N[C@@H](CO)C(=O)N[C@@H](CCCNC(=N)N)C(=O)O` the EC50 was 2.82 µM (C3AR1; GoA protein dissociation, agonist, NanoBiT).
For `Cn1c(=O)n(C2CCC(=O)NC2=O)c2ccc(C3CCN(CC(=O)Nc4cccc(CS(=O)(=O)N5CC[C@H](Nc6cccc(-c7sc(C(=O)O)c(OCC(=O)O)c7Cl)c6)CC5(C)C)c4)CC3)cc21` (some centres unmarked), the EC50 was greater than 10 µM (Dual specificity protein phosphatase 3 (DUSP3, Homo sapiens, UniProt P51452); phosphatase activity; with: DiFMUP substrate).
With `CC(C)Oc1cc(Cl)ccc1CNc1cc(-c2ccccc2)nc2ncnn12` the EC50 was 0.0646 µM and 0.0331 µM and 0.0158 µM and 0.055 µM (G-protein coupled receptor 3 (GPR3, Homo sapiens, UniProt P46089, L128A); cAMP level, agonist).
`CNc1ncnc2c1ncn2C1OC(CO)C(O)C1O` (centres unmarked) has an EC50 of 68 µM (Adenosine receptor A2a (ADORA2A, Homo sapiens, UniProt P29274); G protein activation, agonist).
`Nc1ccc(CNC(=O)c2cc(-c3ccccc3)n(-c3ccccc3)n2)cc1` gave an EC50 of 34 µM (Genome polyprotein NS2B-NS3 protease; reporter gene; HeLa).
For `CC(C)C[C@H](NC(=O)[C@@H](Cc1ccc2ccccc2c1)NC(=O)[C@H](Cc1ccc(O)cc1)NC(=O)[C@H](CO)NC(=O)[C@H](Cc1c[nH]c2ccccc12)NC(=O)[C@H](Cc1c[nH]cn1)NC(=O)[C@@H]1CCC(=O)N1)C(=O)N[C@@H](CCCNC(=N)N)C(=O)N1CCC[C@H]1C(=O)NCC(N)=O`, the EC50 was 0.000224 µM (GNRHR; inositol phosphate, agonist, TR-FRET).
For `CC[C@H](C)[C@H](NC(=O)[C@H](CCCNC(=N)N)NC(=O)[C@H](CCCNC(=N)N)NC(=O)[C@H](CC(C)C)NC(=O)[C@H](Cc1ccccc1)NC(=O)CNC(=O)CN)C(=O)N[C@@H](CCCNC(=N)N)C(=O)N1CCC[C@H]1C(=O)N[C@@H](CCCCN)C(=O)N[C@@H](CC(C)C)C(=O)N[C@@H](CCCCN)C(=O)O`, the EC50 was 1.75 ± 0.95 µM (Probable G-protein coupled receptor 139 (GPR139, Homo sapiens, UniProt Q6DWJ6); calcium response, agonist, BRET; HEK293T/17, transfected).
The EC50 of `O=C1C[C@H](c2nc(-c3ccc(F)c4cn[nH]c34)no2)CCCN1c1ccc(F)cc1` (racemic) is reported as 0.724 µM (Cannabinoid receptor 2 (CNR2, Homo sapiens, UniProt P34972, F281A); cAMP level, GloSensor cAMP; CB2 mutant).
The EC50 of `CCOC(=O)C(CC)(CCCSCCOCCNC(=O)OC(C)(C)C)NC(=O)c1ccc(C2CC2)c(Cc2ccc(F)cc2)n1` (centres unmarked) is reported as 0.0032 µM (CNR2; cAMP, agonist).
For `Fc1ccc(CN2CCC[C@@H](c3nc(-c4ccc(F)c5cn[nH]c45)no3)C2)cn1`, the EC50 was 0.096 µM (CNR2; cAMP, agonist, luciferase).
For `N=C(N)NCc1ccc(CNC(=O)c2cc(-c3ccccc3)n(-c3ccccc3)n2)cc1`, the EC50 was greater than 50 µM (Genome polyprotein NS2B-NS3 protease; reporter gene; HeLa).
For `CCc1cc(O)cc2c(/C=N/NC(=N)NCCc3ccc(Cl)cc3)c[nH]c12`, the EC50 was 0.00468 µM (Relaxin-3 receptor 2 (RXFP4, Homo sapiens, UniProt Q8TDU9, L118A); agonist).
The EC50 of `Cc1nc(-c2ccncc2)sc1C(=O)Nc1cccc(C(N)=O)c1` is reported as greater than 50 µM (Genome polyprotein NS2B-NS3 protease; reporter gene; HeLa).
With `CCOC(=O)C(CC)(CCCSCCOCCOCCOCCN)NC(=O)c1ccc(C2CC2)c(Cc2ccc(F)cc2)n1` (centres unmarked) the EC50 was 0.0099 µM (CNR2; cAMP, agonist).
`C[C@@H]1CN(Cc2ccc(S(=O)(=O)n3cnc(C4CC4)n3)cc2)[C@@H](C)CN1c1cc(=O)n(C)c2ccc(C#N)nc12` gave an EC50 of 1.88 µM (DGKA; plasma membrane translocation, activator, TIRF microscopy, refers to: endogenous DGKα; NG-DGKα knock-in cells; 720 s).
With `NC(=O)c1cccc(NC(=O)c2cccnc2N2CCOCC2)c1` the EC50 was greater than 50 µM (Genome polyprotein NS2B-NS3 protease; reporter gene; HeLa).
The EC50 of `CCOC(=O)[C@](CC)(CCCSCCOCCOCCNC(=O)CCCCCN1C(=CC=CC=CC2=[N+](C)c3ccc4ccccc4c3C2(C)C)C(C)(C)c2c1ccc1ccccc21)NC(=O)c1ccc(C2CC2)c(Cc2ccc(F)cc2)n1` is reported as 0.14 µM (CNR2; cAMP, agonist).
The EC50 of `O=C(O)CCC(=O)O` is reported as 14.5 µM (Succinate receptor 1 (SUCNR1, Homo sapiens, UniProt Q9BXA5); inositol phosphate, agonist).
`CCNC(=O)[C@@H]1CCCN1C(=O)[C@H](CCCNC(=N)N)NC(=O)[C@H](CC(C)C)NC(=O)[C@@H](COC(C)(C)C)NC(=O)[C@H](Cc1ccc(O)cc1)NC(=O)[C@H](CO)NC(=O)[C@H](Cc1c[nH]c2ccccc12)NC(=O)[C@H](Cc1cnc[nH]1)NC(=O)[C@@H]1CCC(=O)N1` has an EC50 of 7.59e-05 µM (GNRHR; inositol phosphate, agonist, TR-FRET).
The EC50 of `COc1ccc(C(=O)c2c(C(=O)NCCCN(C)C)oc3ccc(Cl)cc3c2=O)cc1OC` is reported as 1.26 µM (Growth hormone secretagogue receptor type 1 (GHSR, Homo sapiens, UniProt Q92847); Gα12 dissociation, agonist, TRUPATH BRET; HEK293T).
With `CC1CCc2nccnc21` (centres unmarked) the EC50 was greater than 1500 µM (uncharacterized protein (Canis lupus familiaris, UniProt A0A8I3P1R6); cAMP level, agonist, cAMP luminescence; HEK293 cells).
Under “log2 fold change”, `COC1CN([C@H]2CC[C@H]([C@@]3(C)Oc4c(Cl)cc(C(=O)NCc5c(SC)cc(C)[nH]c5=O)c(C)c4O3)CC2)C1` is recorded as 7.38 (RNA-seq, refers to: CREB3L1; human, whole blood; dose not given, 24 h; baseline: pretreatment baseline).
The EC50 of `Cc1cc(C(=O)N[C@H](C(=O)Nc2cccc(C(N)=O)c2)c2ccc(OCc3ccccc3)cc2)n(Cc2ccccc2)n1` is reported as 6.2 µM (Genome polyprotein NS2B-NS3 protease; reporter gene; HeLa).
With `CCOC(=O)C(CC)(CCCSCCOCCOCCOCCOCCNc1ccc([N+](=O)[O-])c2nonc12)NC(=O)c1ccc(C2CC2)c(Cc2ccc(F)cc2)n1` (centres unmarked) the EC50 was 0.02 µM (CNR2; cAMP, agonist).
`O=C(Cc1ccc(OCc2ccccc2)cc1)NC1(C(=O)O)CCN(C(=O)c2ccc(-c3cccc(Cl)c3)cc2)CC1` gave an EC50 of greater than 10 µM (CNR2; cAMP, agonist, luciferase).
With `O=C(NCc1ccccn1)c1cc(-c2ccccc2)n(-c2ccccc2)n1` the EC50 was 18 µM (Genome polyprotein NS2B-NS3 protease; reporter gene; HeLa).
`C[N+](C)(C)CCOC(N)=O` has an EC50 of 400 µM (Chrnd/Chrna1/Chrne (Mus musculus, UniProt P02716+P04756+P20782); channel open probability, agonist; mouse; wild type).
`CCOC(=O)[C@](CC)(CCCSCCOCCOCCN)NC(=O)c1ccc(C2CC2)c(Cc2ccc(F)cc2)n1` gave an EC50 of 0.0005 µM (CNR2; cAMP, agonist).
The EC50 of `CSCC[C@H](NC(=O)[C@H](CC(C)C)NC(=O)CNC(=O)[C@H](Cc1ccccc1)NC(=O)[C@H](Cc1ccccc1)NC(=O)[C@@H](N)CCC(N)=O)C(N)=O` is reported as 0.01 µM (Substance-P receptor (TACR1, Homo sapiens, UniProt P25103, N85D); agonist; concentration not given).
`CCOC(=O)[C@](CC)(CCCSCCOCCOCCNC(=O)OC(C)(C)C)NC(=O)c1ccc(C2CC2)c(Cc2ccc(F)cc2)n1` has an EC50 of 0.004 µM (CNR2; cAMP, agonist).
`CC(C)(C(=O)N1CCC(Nc2nc3c(c(=O)[nH]2)CCCC3)CC1)c1ccc(Cl)cc1` has an EC50 of 0.0661 µM (MRGPRD (Homo sapiens, UniProt Q8TDS7); miniGq recruitment, agonist, BRET1; HEK293T; wild-type receptor).
For `O=C(c1cc(-c2ccccc2)n(-c2ccccc2)n1)N1CCN(Cc2ccccn2)CC1`, the EC50 was 13 µM (Genome polyprotein NS2B-NS3 protease; reporter gene; HeLa).
With `Cn1c(=O)c(C(N)=O)c(N2CCC(Oc3ccc(OC(F)(F)F)cc3)CC2)c2ccccc21` the EC50 was 0.113 µM (DGKA; DGKα-YFP translocation, high-content imaging; Jurkat).
`N#Cc1cc(NC(=O)c2cc(-c3ccccc3)n(-c3ccccc3)n2)ccc1N1CCOCC1` has an EC50 of 11 µM (Genome polyprotein NS2B-NS3 protease; reporter gene; HeLa).
`CC(C)C[C@H](NC(=O)[C@@H](N)[C@@H](C)O)C(=O)N[C@@H](CCC(N)=O)C(=O)N1CCC[C@H]1C(=O)N1CCC[C@H]1C(=O)N[C@@H](C)C(=O)N[C@@H](CO)C(=O)N[C@@H](CO)C(=O)N[C@@H](CCCNC(=N)N)C(=O)N[C@@H](CCCNC(=N)N)C(=O)N[C@@H](CCCNC(=N)N)C(=O)N[C@@H](Cc1c[nH]cn1)C(=O)N[C@@H](Cc1ccccc1)C(=O)N[C@@H](Cc1c[nH]cn1)C(=O)N[C@@H](Cc1c[nH]cn1)C(=O)N[C@@H](C)C(=O)N[C@@H](CC(C)C)C(=O)N1CCC[C@H]1C(=O)N1CCC[C@H]1C(=O)N[C@@H](C)C(=O)N[C@@H](CCCNC(=N)N)C(=O)O` gave an EC50 of 0.708 µM (C3AR1; cAMP, agonist, luciferase).

Some of these lines once more:
The EC50 of `Nc1ncnc2c1ncn2[C@@H]1O[C@H](COP(=O)(O)OP(=O)(O)OC[C@H]2OC(O)[C@H](O)[C@@H]2O)[C@@H](O)[C@H]1OP(=O)(O)O` (some centres unmarked) is reported as 0.096 ± 0.01 µM (TRPM2 (Nematostella vectensis, UniProt A7T1N0, M197C/H1174C); agonist).
`C[C@@]1(c2nc(-c3ccc(F)c4cn[nH]c34)no2)CCCN(C(=O)c2ccc(F)nc2)C1` has an EC50 of 0.00806 µM (CNR2; cAMP, agonist, luciferase).
With `C=C1C(=O)OC2C=C(C)C(OC(C)=O)CC=C(COC(C)=O)CC(OC(=O)C(C)=CCO)C12` (centres unmarked) the EC50 was 11.7 µM (Branched-chain-amino-acid aminotransferase, cytosolic (BCAT1, Homo sapiens, UniProt P54687)).
With `CC(C)C[C@H](NC(=O)[C@H](C)NC(=O)[C@H](CO)NC(=O)[C@@H]1CCCN1C(=O)[C@@H]1CCCN1C(=O)[C@H](CCC(N)=O)NC(=O)[C@H](CC(C)C)NC(=O)[C@@H](N)[C@@H](C)O)C(=O)N[C@@H](CCCNC(=N)N)C(=O)N[C@@H](CCCNC(=N)N)C(=O)N[C@@H](CCCNC(=N)N)C(=O)N[C@@H](Cc1c[nH]cn1)C(=O)N[C@@H](Cc1ccc(O)cc1)C(=O)N[C@@H](Cc1c[nH]cn1)C(=O)N[C@@H](Cc1c[nH]cn1)C(=O)N[C@@H](C)C(=O)N[C@@H](CC(C)C)C(=O)N1CCC[C@H]1C(=O)N1CCC[C@H]1C(=O)N[C@@H](CO)C(=O)N[C@@H](CCCNC(=N)N)C(=O)O` the EC50 was 2.82 µM (C3AR1; GoA protein dissociation, agonist, NanoBiT).
For `Cn1c(=O)n(C2CCC(=O)NC2=O)c2ccc(C3CCN(CC(=O)Nc4cccc(CS(=O)(=O)N5CC[C@H](Nc6cccc(-c7sc(C(=O)O)c(OCC(=O)O)c7Cl)c6)CC5(C)C)c4)CC3)cc21` (some centres unmarked), the EC50 was greater than 10 µM (Dual specificity protein phosphatase 3 (DUSP3, Homo sapiens, UniProt P51452); phosphatase activity; with: DiFMUP substrate).
